Experimental data of several laboratories.
Each line is one published result; not all experiments were run side by side. ± gives the spread as reported.
UniProt O60674, sequence (whole entry, looked up): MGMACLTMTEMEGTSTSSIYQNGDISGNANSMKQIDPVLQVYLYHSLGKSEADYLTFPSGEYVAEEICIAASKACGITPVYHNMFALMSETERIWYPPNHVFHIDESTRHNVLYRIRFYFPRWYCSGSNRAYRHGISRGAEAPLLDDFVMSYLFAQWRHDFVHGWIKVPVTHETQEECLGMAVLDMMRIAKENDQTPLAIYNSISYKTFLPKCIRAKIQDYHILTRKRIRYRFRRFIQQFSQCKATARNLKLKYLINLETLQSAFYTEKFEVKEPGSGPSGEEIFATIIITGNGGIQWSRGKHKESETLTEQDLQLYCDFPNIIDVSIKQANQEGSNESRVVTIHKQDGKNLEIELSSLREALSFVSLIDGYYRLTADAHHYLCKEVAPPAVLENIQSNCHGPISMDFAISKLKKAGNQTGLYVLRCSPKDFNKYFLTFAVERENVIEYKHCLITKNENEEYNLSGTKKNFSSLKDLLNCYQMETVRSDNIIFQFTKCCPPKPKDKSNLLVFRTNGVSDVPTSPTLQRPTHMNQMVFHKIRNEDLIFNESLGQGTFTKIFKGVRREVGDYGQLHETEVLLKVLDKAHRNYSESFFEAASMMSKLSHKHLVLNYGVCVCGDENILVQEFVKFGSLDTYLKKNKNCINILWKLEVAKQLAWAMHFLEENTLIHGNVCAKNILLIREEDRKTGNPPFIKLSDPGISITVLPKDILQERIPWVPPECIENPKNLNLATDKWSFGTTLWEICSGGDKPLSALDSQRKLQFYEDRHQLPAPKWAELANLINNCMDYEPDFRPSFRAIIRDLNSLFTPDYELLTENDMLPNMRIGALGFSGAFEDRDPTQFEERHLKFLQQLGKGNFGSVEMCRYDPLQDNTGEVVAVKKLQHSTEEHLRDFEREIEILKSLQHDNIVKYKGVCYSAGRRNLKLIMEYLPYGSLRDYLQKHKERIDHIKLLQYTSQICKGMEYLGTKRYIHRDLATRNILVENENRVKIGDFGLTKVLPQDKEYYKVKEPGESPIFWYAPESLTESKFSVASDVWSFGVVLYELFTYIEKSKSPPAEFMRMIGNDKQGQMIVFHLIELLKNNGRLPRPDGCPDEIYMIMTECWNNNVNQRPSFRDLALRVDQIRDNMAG

The relative abundance of `C[C@H]1CN(c2n[nH]c3nc(N[C@H]4CC[C@H](NS(=O)(=O)CCC(F)(F)F)CC4)ncc23)CCO1` is reported as 1.1 (JAK2 (Homo sapiens, UniProt O60674); inhibitor, Kinobeads competition profiling; 0.8 µM; reference: vehicle).
`OCc1ncc2n1-c1ccc(Cl)cc1C(c1ccccc1F)=NC2` gave a Tmax of 0.138 ± 0.0483 h (refers to: 1'-hydroxymidazolam; wild-type mice, plasma; iv, 500 mg/kg, 14 days, with: midazolam 0.3 mg/kg).
For `CCCC(C(=O)c1ccc2c(c1)OCO2)N1CCCC1.Cl` (racemic), the brain-to-plasma ratio was 12.1 ± 1 (rat; subcutaneous, 2 mg/kg, 40 min).
For `CN1[C@H]2CC[C@@H]1[C@@H](C(=O)O)[C@@H](OC(=O)c1ccccc1)C2`, the AUC(0-inf) was 9.75 ± 0.54 µg·h/mL (LC-MS/MS; Sprague-Dawley rat, whole blood; intraperitoneal, 20 mg/kg of cocaine).
The brain-to-plasma ratio of `CCCC(C(=O)c1ccc(O)c(OC)c1)N1CCCC1` (centres unmarked) is reported as 0.3 ± 0.1 (rat; subcutaneous, 2 mg/kg MDPV, 40 min).
`Cc1ncc(OC[C@@]2(c3cccc(F)c3)C[C@H]2C(=O)Nc2ccc(F)cn2)c(C)n1` — result for “zero-order absorption duration”: 0.598 h (population PK base model; human, plasma; oral, capsule).
`CCC(CC)COC(=O)[C@H](C)N[P@](=O)(OC[C@H]1O[C@@](C#N)(c2ccc3c(N)ncnn23)[C@H](O)[C@@H]1O)Oc1ccccc1`: “participants with hot flush” 0% (human; intravenous, 100 mg).
`COc1cccc(C2(O)CCCCC2CN(C)C)c1` (centres unmarked) — result for “absorption rate constant”: 4.56 ng/h (joint PK model; human, whole blood; oral, one-compartment metabolite model).
`CN1CC[C@]23c4c5ccc(O)c4O[C@H]2[C@@H](O[C@@H]2O[C@H](C(=O)O)[C@@H](O)[C@H](O)[C@H]2O)C=C[C@H]3[C@H]1C5` has an AUC(0-inf) of 0.012 ± 0.00317 µg·h/mL (LC-MS/MS; male Sprague-Dawley rat, whole blood; intraperitoneal, 10 mg/kg of heroin).
`CCOc1ccccc1CNCc1cccn1-c1nnc(N2CCN(c3ccccc3)CC2)s1` gave a maximum response of -23% (Vero-E6; CellTiter-Glo ATP; 72 h, first round 5-point; reference: DMSO 0%, hyamine -100%, more negative, more toxic).
Under “Δlog K, saturation effect”, `COc1ccc2c3c1O[C@H]1[C@@H](O)CC[C@@]4(O)[C@@H](C2)N(C)CC[C@]314` is recorded as 0.4 log units (pH-potentiometric titration; reference: O-methyl derivative).
`O=C1c2c(O)c(=O)ccn2N([C@@H]2c3ccccc3SCc3c2ccc(F)c3F)[C@@H]2COCCN12` has a trough concentration of 1.12 ng/mL (BALB/c mouse; subcutaneous, 0.25 mg/kg q12h).
For `O=C(O)CCC(CP(=O)(O)O)C(=O)O` (centres unmarked), the AUC(0-inf) was 210 µg·h/mL (Wistar rat, male, plasma; ip, 100 mg/kg).
`COc1ccc2c3c1O[C@H]1C(=O)C=C[C@@]4(O)[C@@H](C2)N(C)CC[C@]314` — result for “Δlog K, 14-hydroxylation effect”: 0.8 log units (pH-potentiometric titration; reference: O-methyl derivative).
`CN/C(=N\[N+](=O)[O-])NCc1cnc(Cl)s1` gave a recovery of 33% (soil; 28 days, nominal 0.12).
`CC(=O)O[C@H]1C=C[C@H]2[C@H]3Cc4ccc(O)c5c4[C@@]2(CCN3C)[C@H]1O5` has an AUC(0-inf) of 1.15 ± 0.169 µg·h/mL (LC-MS/MS; male Sprague-Dawley rat, whole blood; intraperitoneal, 10 mg/kg of heroin).
For `CCN(CC)C(=O)[C@@H]1C=C2c3cccc4[nH]cc(c34)C[C@H]2N(C)C1`, “List of Complaints score” read 3 (refers to: hypersensitivity to odours; healthy volunteers; dose not given, 0 to 12 h; reference: placebo, direction not given).
For `C/C=C1/CN2CC[C@]34C(=C(C(=O)OC)[C@H]1C[C@H]23)Nc1ccc(I)cc14`, the rotarod latency was ~65% (CD-1 mouse; subcutaneous, 5 mg/kg, 10 min; reference: baseline).
`Cc1ncc2n1-c1ccc(Cl)cc1C(c1ccccc1F)=NC2` has a Tmax of 2 h (healthy volunteers, plasma; oral, 5 mg single dose, day 1, given alone).
`C[C@]12CC[C@H]3[C@@H](CC=C4CC(O)CC[C@@]43CO)[C@@H]1CCC2O` (some centres unmarked) — result for food intake: “no effect” (rat, GAN diet-induced MASH; dose not given; reference: vehicle).
For `COc1ccc2c(c1)[C@]13CCCC[C@@H]1[C@H](C2)N(C)CC3`, “urinary metabolic ratio” read 0.78 (refers to: compound over dextrorphan molar; human, urine; oral, dose not given, with: upadacitinib once daily; reference: with over without upadacitinib).
Under “metabolite peak area share”, `C#Cc1ccc2c(c1)C(c1ccccn1)=NCc1c(-c3cnco3)ncn1-2` is recorded as 81.5% (Sprague-Dawley rat hepatocytes; 2 µM, 4 h, 37 °C).
`COc1ccc(CC(=O)NC2CCN(Cc3ccc(-c4ccccc4OC)cc3)C2)cc1` (centres unmarked) gave a maximum response of -4.86% (Vero-E6; CellTiter-Glo ATP; 72 h, first round 5-point; reference: DMSO 0%, hyamine -100%, more negative, more toxic).
Under “mean residence time”, `Cc1ncc2n1-c1ccc(Cl)cc1C(c1ccccc1F)=NC2` is recorded as 0.605 ± 0.175 h (wild-type mice, plasma; intravenous, 0.3 mg/kg, with: 3-day PB, BC 500 mg/kg and PCN 10 mg/kg).
`CCCC(C(=O)c1ccc(O)c(O)c1)N1CCCC1` (centres unmarked) gave a plasma concentration of 0.0144 ± 0.0013 µg/mL (LC-MS/MS; rat, trunk blood plasma; subcutaneous, 1 mg/kg MDPV, 240 min).
For `OCc1ncc2n1-c1ccc(Cl)cc1C(c1ccccc1F)=NC2`, the AUC(0-t) was 0.043 µg·h/mL (human, plasma; oral, 7.5 mg of midazolam, day 26, arithmetic mean, no amenamevir).

Some of these lines once more:
`C[C@]12CC[C@H]3[C@@H](CC=C4CC(O)CC[C@@]43CO)[C@@H]1CCC2O` (some centres unmarked) — result for food intake: “no effect” (rat, GAN diet-induced MASH; dose not given; reference: vehicle).
For `OCc1ncc2n1-c1ccc(Cl)cc1C(c1ccccc1F)=NC2`, the AUC(0-t) was 0.043 µg·h/mL (human, plasma; oral, 7.5 mg of midazolam, day 26, arithmetic mean, no amenamevir).
For `CN1[C@H]2CC[C@@H]1[C@@H](C(=O)O)[C@@H](OC(=O)c1ccccc1)C2`, the AUC(0-inf) was 9.75 ± 0.54 µg·h/mL (LC-MS/MS; Sprague-Dawley rat, whole blood; intraperitoneal, 20 mg/kg of cocaine).
The brain-to-plasma ratio of `CCCC(C(=O)c1ccc(O)c(OC)c1)N1CCCC1` (centres unmarked) is reported as 0.3 ± 0.1 (rat; subcutaneous, 2 mg/kg MDPV, 40 min).
